Published values of several laboratories.
A part holds a random share of what one study measured.

Set 1
Target: Sal-like protein 4, full length isoform B (SALL4, Homo sapiens, UniProt Q9UJQ4-2, residues 1-616)
Method: universal PBM
Form: double-stranded DNA, one strand shown
Sample: in vitro
Tested at: not given
Setting: 8-mer, flanks averaged, mean of replicates
Direction: higher = stronger binding
Target sequence (chain): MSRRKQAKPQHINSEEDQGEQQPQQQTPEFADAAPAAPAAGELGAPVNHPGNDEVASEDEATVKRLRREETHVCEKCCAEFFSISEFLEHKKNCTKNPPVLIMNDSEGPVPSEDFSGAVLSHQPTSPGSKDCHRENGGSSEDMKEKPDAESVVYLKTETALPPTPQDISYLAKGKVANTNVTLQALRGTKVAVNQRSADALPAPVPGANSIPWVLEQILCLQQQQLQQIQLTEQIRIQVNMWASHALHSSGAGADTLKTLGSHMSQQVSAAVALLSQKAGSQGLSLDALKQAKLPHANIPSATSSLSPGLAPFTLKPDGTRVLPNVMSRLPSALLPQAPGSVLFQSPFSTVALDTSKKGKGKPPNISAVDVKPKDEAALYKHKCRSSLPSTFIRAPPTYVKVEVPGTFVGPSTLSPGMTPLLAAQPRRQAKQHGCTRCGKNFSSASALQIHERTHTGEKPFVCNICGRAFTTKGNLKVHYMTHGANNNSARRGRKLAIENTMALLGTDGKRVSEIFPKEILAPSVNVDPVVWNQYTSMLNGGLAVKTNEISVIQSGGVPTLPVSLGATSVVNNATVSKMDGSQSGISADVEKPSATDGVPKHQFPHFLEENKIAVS
For `AACCAACG`, the E-score was -0.054.
`GAAAGGAC` gave an E-score of 0.117.
`CCCAAGTA` has an E-score of 0.0671.
The E-score of `ACAGAAAG` is reported as 0.0245.
The E-score of `CAAAACGG` is reported as -0.00228.
For `CCCAGGCG`, the E-score was -0.325.
The E-score of `TCGCGACA` is reported as -0.0491.
With `AACGATGC` the E-score was -0.0412.
`AATTAGCT` gave an E-score of 0.144.
The E-score of `AGAAACCC` is reported as 0.0054.
`CCAAATAA` has an E-score of 0.192.
With `ATCCTACC` the E-score was -0.116.
For `CTCTTCAA`, the E-score was -0.0546.
The E-score of `AGGATTGG` is reported as -0.0293.
With `ACAAAATA` the E-score was 0.283.
For `GCGATGAA`, the E-score was 0.00468.

Set 2
Target: Interferon regulatory factor 5, full length, phosphomimetic (IRF5, Homo sapiens, UniProt Q13568-2, residues 1-514, S451D/S453D/S456D/S462D)
Method: protein-binding microarray
Form: double-stranded DNA, one strand shown
Sample: in vitro
Tested at: 940 nM top
Setting: 60-bp whole probe
Added: salmon DNA 0.4 mg/ml
Baseline: random background probes
Direction: higher = stronger binding
Constant ends, left off below: GCCTAGCAC … GTCTTGATTCGCTTGACGCTGCTG
`TCATATGTCTGTTTTTGACTGTGCTAG`: “fitted relative affinity” 0.432 z-score.
`GACGAACTGAGTATCGAGAGGTGCTAG` — result for “fitted relative affinity”: 1.32 z-score.
`GACAGTATCCTTCTCCTGACGTGCTAG` — result for “fitted relative affinity”: 1.09 z-score.
`TGTGAAACCTTCAGGCACGTGTGCTAG`: “fitted relative affinity” -0.074 z-score.
For `TTAGGACTGGGGTTTCGCTTAGTGCTA`, “fitted relative affinity” read 2.62 z-score.
`TTAGGTCTCCTTTTCCTTAAGTGCTAG`: “fitted relative affinity” 1.14 z-score.
Under “fitted relative affinity”, `GAAGGTTTCGACTTTCGGGACGTGCTA` is recorded as 6.48 z-score.
`GGACCGCGACCTGCCAAGTCGTGCTAG` — result for “fitted relative affinity”: -0.638 z-score.
For `GACGACCTCAGTATCGAGACGTGCTAG`, “fitted relative affinity” read 1.52 z-score.
`GACGGACTGGGGTATCGGGATGTGCTA` — result for “fitted relative affinity”: 0.652 z-score.
`TTAGGACTGCTAATGCTTTAGTGCTAG`: “fitted relative affinity” -0.507 z-score.
For `GACCGACTGCTTATCCTGACGTGCTAG`, “fitted relative affinity” read -0.303 z-score.
`TCAAGTTTCACTTTCCAACTGTGCTAG`: “fitted relative affinity” 8.07 z-score.
For `TTAGGACTGGGATTCGGTTAGTGCTAG`, “fitted relative affinity” read -0.0838 z-score.
`TTAGATCTCAGACGGGATTAGTGCTAG` — result for “fitted relative affinity”: -0.35 z-score.
`GACGGTATCGGTTTCGGGACGTGCTAG` — result for “fitted relative affinity”: 10.3 z-score.
For `TCAAAAAATGATTGGTTACTGTGCTAG`, “fitted relative affinity” read -0.182 z-score.
For `TTAGAACTGAGTCTCAATTAGTGCTAG`, “fitted relative affinity” read 0.344 z-score.
`TCATCTTTCTACATAGAACTGTGCTAG` — result for “fitted relative affinity”: 0.648 z-score.

Set 3
Target: RNA binding protein fox-1 homolog 2, RRM domain, GST-SBP tag (RBFOX2, Homo sapiens, UniProt O43251-10, residues 100-194)
Method: RNA Bind-n-Seq
Form: RNA
Sample: in vitro
Tested at: 365 nM
Setting: natural RNA segment, single round, ends assumed
Baseline: no-protein control
Direction: higher = stronger binding
Constant ends, left off below: GGGAGUUCUACAGUCCGACGAUC … UGGAAUUCUCGGGUGCCAA
Construct (chain): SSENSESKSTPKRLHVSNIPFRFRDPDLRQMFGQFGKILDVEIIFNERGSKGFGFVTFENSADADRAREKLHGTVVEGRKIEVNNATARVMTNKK
Under “RBNS enrichment (R)”, `UUCGGGAUCUGCUCCUUCUGUCCCAGGAGGUCUACUGGAGUUAGUUGUGUGGUCACCAAGAGGACUGAGGACACAGUAGCCCUGAGCCAAGUUGGGCUCAUCUUCCAGGG` is recorded as 0.385.
`ACUCUACUGCAAGACUUAAAUAGUUCAGUAUAAAUUGUCGUUUUUUUCUUGUGCUGACUAACUAUAAGCAUGAUCUUGUUAAUGCAUUUUUGAUGGGAAGAAAAGGUACA`: “RBNS enrichment (R)” 7.83.
Under “RBNS enrichment (R)”, `UCCUUUGGGAUUUUGUUGCUCCGUUUAAACCAGGUGUAUUGUGACAUGAACAUGACUUUCCUAAAGUGGAAGGAUCUGUCCCCACCUUCACCCAGUCCUUAGGACAAGUA` is recorded as 0.283.
For `CUAGCUGUCAGCUUAAACCCUCUGUAAUAGAACAUGGAAACAGACACAUAAAGACAUUAGCUGAAAAAAUAGAGUGAAAAUCAACUAUUUUUUACUCCCGCUAAUUUCAA`, “RBNS enrichment (R)” read 0.291.
`AAGUCUCCCCAUCUCCUUACAACUGUGUGCUAAGUAAGUAACUUGGCCAAGGGUAGUUUUCAGCUCAAUUUAUAGAAUAGUCCAAAGAGACUUUGAGAAACAUGGUGAUA`: “RBNS enrichment (R)” 0.518.
Under “RBNS enrichment (R)”, `UAAACUUCAGCAGAGUCCACUUGUUCUCCCGGAAGCUUAAUGUAAUUGAAUGGCAGUUAUCACUAAAUAAAAUUCUUUUCUGAGUCUCUCCCGAGAGUGGCAGUCCUUUG` is recorded as 0.717.
`AGCUAGGCUUCAUCUACCUCAGCUCUUUUAAAGCAGUCGCUACAGGAAAGAGGUAGGAGAGGCCGUGGAAAGCUUGUGUCCAGACGUCACUCCGGACAGUCCGACUUCCG`: “RBNS enrichment (R)” 0.268.
`ACAGUAUGCCCUGCCUUCCCUGGGCCAAAAGAAAUCCGUGCUGUCACUGAUGCUGGCGAUGAUGCAGAGCUGUCGCUGCCCUCAGCUCCUGCUGGCUUGUUUAUCAGGGA` — result for “RBNS enrichment (R)”: 0.269.

Set 4
Target: Histone acetyltransferase KAT6A, both winged helices, GST fusion (KAT6A, Homo sapiens, UniProt Q92794, residues 1-181)
Method: protein binding microarray
Form: double-stranded DNA, one strand shown
Sample: in vitro
Tested at: not given
Setting: 8-mer, flanks averaged, mean of 2 arrays, mostly near background
Baseline: not given
Direction: higher = stronger binding
Construct (chain): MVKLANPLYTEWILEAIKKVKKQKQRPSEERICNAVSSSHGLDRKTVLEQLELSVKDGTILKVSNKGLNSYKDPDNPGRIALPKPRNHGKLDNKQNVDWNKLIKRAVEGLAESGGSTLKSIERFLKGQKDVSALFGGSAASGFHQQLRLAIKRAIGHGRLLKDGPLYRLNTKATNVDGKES
`AAATACTC` has an E-score of -0.118.
For `ACGTTTCA`, the E-score was 0.0142.
For `CACGTGTA`, the E-score was -0.0211.
For `CGGCAAAA`, the E-score was 0.203.
`GCACTGGA` gave an E-score of -0.0827.
For `ATGTGACA`, the E-score was 0.153.
The E-score of `CGTTCTGA` is reported as -0.000385.
For `AATGCTTG`, the E-score was -0.0631.
For `AGAGGCCA`, the E-score was -0.199.
The E-score of `AGTTAAGC` is reported as -0.037.
For `AAATTGAC`, the E-score was -0.0461.
`CTTGTCGA` has an E-score of -0.0786.
With `AAGATGGC` the E-score was 0.0116.
With `CTGGGATA` the E-score was -0.109.
`GTTGCCAA` gave an E-score of -0.237.
With `GCGTTTAA` the E-score was 0.15.
For `CGAGCACA`, the E-score was -0.0987.
With `ATAATGTC` the E-score was 0.0804.
`GACCATAC` gave an E-score of 0.0257.
`AACCACCT` gave an E-score of -0.173.
The E-score of `GAAAGATA` is reported as -0.129.
`ATGTCCAA` gave an E-score of 0.0523.
The E-score of `GCGAAGCC` is reported as 0.0347.
For `CCTGTAAA`, the E-score was -0.189.
For `TAGCAAGA`, the E-score was -0.25.

Set 5
Target: Ras GTPase-activating protein-binding protein 1, C-terminal RGG region (G3BP1, Homo sapiens, UniProt Q13283)
Sequence of UniProt Q13283 (whole entry, looked up): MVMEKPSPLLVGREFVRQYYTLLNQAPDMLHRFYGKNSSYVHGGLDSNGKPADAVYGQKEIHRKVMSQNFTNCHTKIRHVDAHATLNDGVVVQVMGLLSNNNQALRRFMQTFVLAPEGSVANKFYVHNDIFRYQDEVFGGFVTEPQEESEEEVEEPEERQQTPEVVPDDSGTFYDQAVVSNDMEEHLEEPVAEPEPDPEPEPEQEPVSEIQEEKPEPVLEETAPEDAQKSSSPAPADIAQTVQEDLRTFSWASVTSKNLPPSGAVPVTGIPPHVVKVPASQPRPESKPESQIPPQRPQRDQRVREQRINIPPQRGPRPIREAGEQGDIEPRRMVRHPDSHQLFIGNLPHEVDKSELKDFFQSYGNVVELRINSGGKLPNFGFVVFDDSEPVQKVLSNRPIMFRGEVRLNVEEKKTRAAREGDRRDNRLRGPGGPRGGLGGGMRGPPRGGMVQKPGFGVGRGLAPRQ
Method: RNA Bind-n-Seq
Form: RNA
Sample: in vitro
Tested at: 1 µM
Setting: whole 134-nt RNA, ends assumed
Added: 150 mM KCl
Baseline: input library
Direction: higher = stronger binding
Constant ends, left off below: GGGAGUUCUACAGUCCGACGAUC … UGGAAUUCUCGGGUGUCAAGG
The log2 enrichment of `AGUCCUGUGCUACACAUCGUAUGUACCGAAUCGGAAAAAGGAAAAAAAGGAAAAAGGAAAGUAUUAUGUUACGCCGUUCGGAUCUGCACU` is reported as -2.07.
With `CCUGUGCUACACAUCGUAUGUACCGAAUCGGGGCCCCCCGGCCCCCCGGGCCCCCCGGGGAAAGUAUUAUGUUACGCCGUUCGGAUCUGC` the log2 enrichment was -1.48.
`CCUGUGCUACACAUCGUAUGUACCGAAUCGGGGCCCCCCGGGCCCCCCGGGGCCCCCCGGGAAAGUAUUAUGUUACGCCGUUCGGAUCUG` gave a log2 enrichment of -1.94.
`CAAGUCCUGUGCUACACAUCGUAUGUACCGAAUCGGUUUUUGGAGGUUUUUUUGGAAAGUAUUAUGUUACGCCGUUCGGAUCUGCACUUC` gave a log2 enrichment of -1.53.
The log2 enrichment of `UAACUUUAGAGGAGGAUCUGAUAGAUAUGGCAGUGGACGUGGAUUUGGGGAUGGCUAUAAUGGGUAUGGAGGAGGACCUGGAGGUGGCAA` is reported as -1.48.
With `CCUGUGCUACACAUCGUAUGUACCGAAUCGGGGUUUUUUUGGGGUUUUUUUGGGGUGGGGAAAGUAUUAUGUUACGCCGUUCGGAUCUGC` the log2 enrichment was -0.0543.
With `ACCAUGCAGGUGGGCAUCUUUGGGAAGUGGGGCAAGGGGGGGAUAGGGAGGGGGGUAACACUUUGGGAACAGGUGGUCCCAGGUCUUUUC` the log2 enrichment was 2.28.
With `CAAGUCCUGUGCUACACAUCGUAUGUACCGAAUCGGGAAAGGGGAAAGGGAAAGGGAAAGUAUUAUGUUACGCCGUUCGGAUCUGCACUU` the log2 enrichment was 1.54.
For `UUCAGGAUGAAGAUGCAUCAGGGGGCGAUCAAGAUCAGGAAGAAAGAAGAUGGAACAAAAGGACUCAGCAGAUGCUUCAUGGUCUUCAGG`, the log2 enrichment was -1.88.

Excerpt of the above (set 4):
`GCACTGGA` gave an E-score of -0.0827.
For `ATGTGACA`, the E-score was 0.153.
The E-score of `CGTTCTGA` is reported as -0.000385.
For `AATGCTTG`, the E-score was -0.0631.
For `AGAGGCCA`, the E-score was -0.199.
The E-score of `AGTTAAGC` is reported as -0.037.
For `AAATTGAC`, the E-score was -0.0461.
`CTTGTCGA` has an E-score of -0.0786.
With `AAGATGGC` the E-score was 0.0116.
With `CTGGGATA` the E-score was -0.109.
